Assay results collected from several papers.
Protocols differ between the studies behind these lines. ± marks the error that the study gave.
Sequence of UniProt P34972 (whole entry, looked up): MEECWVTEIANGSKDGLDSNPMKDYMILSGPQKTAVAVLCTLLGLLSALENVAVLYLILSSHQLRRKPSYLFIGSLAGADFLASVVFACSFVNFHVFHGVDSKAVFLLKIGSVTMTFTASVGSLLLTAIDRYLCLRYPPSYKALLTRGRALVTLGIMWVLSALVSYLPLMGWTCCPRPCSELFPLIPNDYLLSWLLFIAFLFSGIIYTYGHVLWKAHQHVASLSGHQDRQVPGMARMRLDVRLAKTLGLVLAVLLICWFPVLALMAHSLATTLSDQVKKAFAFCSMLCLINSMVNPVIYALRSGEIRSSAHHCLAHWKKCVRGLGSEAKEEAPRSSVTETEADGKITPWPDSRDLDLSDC
Sequence of UniProt Q86TI2 (whole entry, looked up): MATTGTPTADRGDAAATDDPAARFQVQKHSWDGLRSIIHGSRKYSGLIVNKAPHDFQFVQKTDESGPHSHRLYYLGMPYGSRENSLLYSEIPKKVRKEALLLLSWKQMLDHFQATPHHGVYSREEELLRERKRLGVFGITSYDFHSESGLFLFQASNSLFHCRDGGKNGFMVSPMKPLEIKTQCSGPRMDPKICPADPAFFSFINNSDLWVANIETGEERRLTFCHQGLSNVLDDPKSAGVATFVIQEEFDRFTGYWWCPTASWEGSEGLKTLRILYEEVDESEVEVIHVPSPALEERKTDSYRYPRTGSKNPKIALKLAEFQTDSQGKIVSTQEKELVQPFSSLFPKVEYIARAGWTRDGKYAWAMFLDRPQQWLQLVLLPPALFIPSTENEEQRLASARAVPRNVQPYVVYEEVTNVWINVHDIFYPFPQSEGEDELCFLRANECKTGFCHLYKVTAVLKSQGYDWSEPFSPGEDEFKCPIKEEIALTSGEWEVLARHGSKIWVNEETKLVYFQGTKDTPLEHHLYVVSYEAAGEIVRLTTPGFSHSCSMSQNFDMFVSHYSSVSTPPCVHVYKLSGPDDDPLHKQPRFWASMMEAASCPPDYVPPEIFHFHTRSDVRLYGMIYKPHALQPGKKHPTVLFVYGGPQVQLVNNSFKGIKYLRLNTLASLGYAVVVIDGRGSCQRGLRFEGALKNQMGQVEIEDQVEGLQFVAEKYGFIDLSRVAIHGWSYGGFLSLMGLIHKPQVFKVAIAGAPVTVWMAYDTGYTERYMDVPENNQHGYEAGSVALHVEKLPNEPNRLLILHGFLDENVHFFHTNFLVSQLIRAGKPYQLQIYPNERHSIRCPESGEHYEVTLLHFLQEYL
Sequence of UniProt Q16539 (whole entry, looked up): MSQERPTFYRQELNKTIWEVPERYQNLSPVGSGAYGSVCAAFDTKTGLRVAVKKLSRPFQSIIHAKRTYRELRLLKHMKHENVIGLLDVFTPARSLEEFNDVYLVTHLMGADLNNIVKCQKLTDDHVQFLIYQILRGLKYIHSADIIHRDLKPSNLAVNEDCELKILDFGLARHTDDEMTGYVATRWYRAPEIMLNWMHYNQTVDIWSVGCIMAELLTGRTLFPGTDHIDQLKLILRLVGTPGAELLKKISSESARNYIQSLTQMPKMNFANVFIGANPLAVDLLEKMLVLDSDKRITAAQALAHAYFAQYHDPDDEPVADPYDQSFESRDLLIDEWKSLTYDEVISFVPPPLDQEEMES
Sequence of UniProt Q01718 (whole entry, looked up): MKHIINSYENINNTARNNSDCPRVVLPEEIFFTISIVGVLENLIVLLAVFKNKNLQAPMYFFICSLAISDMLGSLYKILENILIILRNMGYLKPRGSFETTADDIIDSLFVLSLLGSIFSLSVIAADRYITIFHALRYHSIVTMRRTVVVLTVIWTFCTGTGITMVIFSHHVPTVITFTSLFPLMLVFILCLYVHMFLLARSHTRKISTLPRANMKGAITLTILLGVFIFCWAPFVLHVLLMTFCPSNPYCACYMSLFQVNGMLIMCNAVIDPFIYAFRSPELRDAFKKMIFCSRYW
Sequence of UniProt P35410 (whole entry, looked up): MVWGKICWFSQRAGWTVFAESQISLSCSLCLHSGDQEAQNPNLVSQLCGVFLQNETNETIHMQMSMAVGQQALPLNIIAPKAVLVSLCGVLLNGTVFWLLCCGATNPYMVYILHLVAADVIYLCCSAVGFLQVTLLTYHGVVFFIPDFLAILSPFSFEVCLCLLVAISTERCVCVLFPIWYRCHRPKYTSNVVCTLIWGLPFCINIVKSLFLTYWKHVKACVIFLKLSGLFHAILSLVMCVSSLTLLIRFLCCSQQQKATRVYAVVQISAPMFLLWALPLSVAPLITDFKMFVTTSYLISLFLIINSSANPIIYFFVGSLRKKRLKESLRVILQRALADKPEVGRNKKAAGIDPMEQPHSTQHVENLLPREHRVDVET
Sequence of UniProt Q9Y2U5 (whole entry, looked up): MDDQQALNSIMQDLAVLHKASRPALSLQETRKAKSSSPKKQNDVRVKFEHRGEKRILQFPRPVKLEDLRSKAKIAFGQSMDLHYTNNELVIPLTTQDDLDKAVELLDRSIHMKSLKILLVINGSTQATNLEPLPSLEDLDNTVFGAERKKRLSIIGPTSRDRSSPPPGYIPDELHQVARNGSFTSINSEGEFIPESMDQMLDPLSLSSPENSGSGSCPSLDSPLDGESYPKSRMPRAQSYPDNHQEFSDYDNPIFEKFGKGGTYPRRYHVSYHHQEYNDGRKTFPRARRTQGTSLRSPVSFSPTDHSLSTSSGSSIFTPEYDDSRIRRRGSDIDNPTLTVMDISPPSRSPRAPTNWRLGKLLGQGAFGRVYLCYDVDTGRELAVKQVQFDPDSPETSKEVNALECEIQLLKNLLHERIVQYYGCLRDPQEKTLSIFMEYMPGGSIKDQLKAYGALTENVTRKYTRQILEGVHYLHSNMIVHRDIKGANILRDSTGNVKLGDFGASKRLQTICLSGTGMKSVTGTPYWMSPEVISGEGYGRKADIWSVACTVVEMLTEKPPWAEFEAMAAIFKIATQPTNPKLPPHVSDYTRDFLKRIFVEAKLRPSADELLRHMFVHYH
Sequence of UniProt P46098 (whole entry, looked up): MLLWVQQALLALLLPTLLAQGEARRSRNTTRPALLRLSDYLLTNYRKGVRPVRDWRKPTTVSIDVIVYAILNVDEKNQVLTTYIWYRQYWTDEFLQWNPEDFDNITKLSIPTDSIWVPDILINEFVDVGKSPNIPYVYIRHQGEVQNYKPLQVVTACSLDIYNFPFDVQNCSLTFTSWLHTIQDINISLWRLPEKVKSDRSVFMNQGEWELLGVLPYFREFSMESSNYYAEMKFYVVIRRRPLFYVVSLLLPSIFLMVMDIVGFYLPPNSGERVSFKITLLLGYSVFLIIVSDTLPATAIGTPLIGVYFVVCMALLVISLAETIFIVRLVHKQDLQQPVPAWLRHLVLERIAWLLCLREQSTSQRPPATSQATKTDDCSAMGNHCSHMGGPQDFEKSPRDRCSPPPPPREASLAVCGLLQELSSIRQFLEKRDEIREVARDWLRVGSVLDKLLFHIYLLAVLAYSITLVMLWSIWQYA
Sequence of UniProt P53355 (whole entry, looked up): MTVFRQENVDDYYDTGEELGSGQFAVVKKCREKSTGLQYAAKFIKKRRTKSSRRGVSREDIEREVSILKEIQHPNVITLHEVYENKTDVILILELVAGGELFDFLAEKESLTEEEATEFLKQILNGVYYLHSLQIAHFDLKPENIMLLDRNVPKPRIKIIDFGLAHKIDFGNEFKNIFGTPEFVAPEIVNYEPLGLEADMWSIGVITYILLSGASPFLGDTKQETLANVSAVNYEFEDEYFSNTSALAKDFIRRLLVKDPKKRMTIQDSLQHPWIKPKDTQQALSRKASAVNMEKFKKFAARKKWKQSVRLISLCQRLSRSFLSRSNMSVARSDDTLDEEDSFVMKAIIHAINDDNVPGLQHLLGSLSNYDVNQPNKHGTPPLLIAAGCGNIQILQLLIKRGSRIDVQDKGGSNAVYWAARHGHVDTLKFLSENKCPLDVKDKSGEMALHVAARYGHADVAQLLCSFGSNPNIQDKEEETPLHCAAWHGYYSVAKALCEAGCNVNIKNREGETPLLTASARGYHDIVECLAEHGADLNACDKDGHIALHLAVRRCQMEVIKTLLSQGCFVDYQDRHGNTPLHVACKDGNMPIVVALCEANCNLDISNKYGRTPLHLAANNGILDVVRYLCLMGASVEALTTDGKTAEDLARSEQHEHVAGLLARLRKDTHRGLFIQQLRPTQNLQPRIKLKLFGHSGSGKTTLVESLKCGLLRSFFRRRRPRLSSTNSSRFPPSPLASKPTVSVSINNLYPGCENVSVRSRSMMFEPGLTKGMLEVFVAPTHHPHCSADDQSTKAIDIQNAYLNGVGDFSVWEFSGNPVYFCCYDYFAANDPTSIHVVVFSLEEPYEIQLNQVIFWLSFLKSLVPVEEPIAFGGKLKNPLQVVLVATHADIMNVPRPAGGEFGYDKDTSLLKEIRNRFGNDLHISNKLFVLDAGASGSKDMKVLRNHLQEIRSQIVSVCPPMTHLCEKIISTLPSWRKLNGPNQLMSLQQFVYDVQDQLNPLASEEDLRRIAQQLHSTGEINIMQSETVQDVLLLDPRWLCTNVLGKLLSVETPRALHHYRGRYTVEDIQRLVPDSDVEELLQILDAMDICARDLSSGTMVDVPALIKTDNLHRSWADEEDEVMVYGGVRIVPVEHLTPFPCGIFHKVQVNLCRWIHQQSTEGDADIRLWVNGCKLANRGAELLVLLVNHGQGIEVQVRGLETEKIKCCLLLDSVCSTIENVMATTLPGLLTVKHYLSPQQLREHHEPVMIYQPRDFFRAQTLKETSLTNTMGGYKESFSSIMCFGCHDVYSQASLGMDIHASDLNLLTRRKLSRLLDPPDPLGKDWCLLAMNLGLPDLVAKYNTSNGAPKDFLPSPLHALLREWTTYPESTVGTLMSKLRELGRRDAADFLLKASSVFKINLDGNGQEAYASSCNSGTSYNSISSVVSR

SMILES	target or system	test	system	conditions	how to read	quantity	value
CC[C@H](C)[C@H](NC(=O)CNC(=O)[C@@H](N)CCCCN)C(=O)N[C@@H](CC(C)C)C(=O)N[C@@H](CCCCN)C(=O)N[C@@H](CCCNC(=N)N)C(=O)N[C@@H](CCC(=O)O)C(=O)N[C@@H](CCCCN)C(=O)N[C@@H](CCCNC(=N)N)C(=O)N[C@@H](CC(C)C)C(=O)N[C@@H](CCCNC(=N)N)C(=O)N[C@@H](CCCNC(=N)N)C(=O)N[C@@H](CCCCN)C(=O)N[C@@H](CC(N)=O)C(=O)N[C@H](C(=O)N[C@@H](Cc1c[nH]cn1)C(=O)N[C@@H](Cc1c[nH]c2ccccc12)C(=O)N1CCC[C@H]1C(=O)N[C@@H](CCC(=O)O)C(=O)N[C@@H](CCC(=O)O)C(=O)NCC(=O)N[C@@H](CCCCN)C(=O)N[C@@H](CC(C)C)C(=O)N[C@@H](CCCNC(=N)N)C(=O)N[C@@H](CCC(=O)O)C(=O)N[C@@H](Cc1ccc(O)cc1)C(=O)N[C@@H](Cc1ccccc1)C(=O)N[C@@H](Cc1ccc(O)cc1)C(=O)N[C@@H](Cc1ccccc1)C(=O)N[C@@H](CCC(=O)O)C(=O)N[C@@H](CC(C)C)C(=O)N[C@@H](CC(=O)O)C(=O)N[C@@H](CCC(=O)O)C(=O)N[C@@H](C)C(=O)N[C@@H](CCC(=O)O)C(=O)N[C@@H](CCCNC(=N)N)C(=O)N[C@H](C(=O)N[C@@H](CC(N)=O)C(=O)N[C@H](C(=O)O)C(C)C)C(C)C)C(C)C	HeLa and HEK-293T cells	phosphatase bead binding, competitive inhibitor, PIB pulldown iBAQ LC-MS/MS, refers to: STRN3		concentration not given	reference: untreated control	log2 fold change	-0.19
CC[C@H](C)[C@H](NC(=O)[C@H](Cc1ccccc1)NC(=O)[C@H](CCC(=O)O)NC(=O)[C@H](CCCNC(=N)N)NC(=O)[C@H](C)NC(=O)[C@H](C)NC(=O)[C@H](CCC(N)=O)NC(=O)[C@H](CCC(=O)O)NC(=O)[C@H](CCC(=O)O)NC(=O)[C@H](CC(C)C)NC(=O)[C@H](Cc1ccc(O)cc1)NC(=O)[C@H](CO)NC(=O)[C@H](CO)NC(=O)[C@@H](NC(=O)[C@H](CC(=O)O)NC(=O)[C@H](CO)NC(=O)[C@@H](NC(=O)[C@H](Cc1ccccc1)NC(=O)[C@@H](NC(=O)CNC(=O)[C@H](CCC(=O)O)NC(=O)[C@H](C)NC(=O)CCc1c[nH]cn1)[C@@H](C)O)[C@@H](C)O)C(C)C)C(=O)N[C@@H](C)C(=O)N[C@@H](Cc1c[nH]c2ccccc12)C(=O)N[C@@H](CC(C)C)C(=O)N[C@H](C(=O)N[C@@H](CCCNC(=N)N)C(=O)NCC(=O)N[C@@H](CCCNC(=N)N)C(=O)N[C@@H](CCCCNC(=O)COCCOCCNC(=O)COCCOCCNC(=O)CC[C@H](NC(=O)CCCCCCCCCCCCCCCCC(=O)O)C(=O)O)C(=O)NCC(=O)NCC(=O)N[C@@H](CO)C(=O)N[C@@H](CCCCNc1c(NCCCCCN(O)C(=O)CCC(=O)NCCCCCN(O)C(=O)CCC(=O)NCCCCCN(O)C(C)=O)c(=O)c1=O)C(=O)O)C(C)C [zirconium-89 labelled]			rat, heart	iv, 3 nmol/kg, 4 h, ex vivo		tissue uptake	0.47 %ID/g
O=C(c1ccc(Cl)cc1)N1CCN2C(=O)N(OC(=O)N3CCOc4ccccc43)C(=O)C2C1 (stereo not shown)	DPP9 (Homo sapiens, UniProt Q86TI2)	MS-based ABPP	SW-620 conditioned medium	10 µM, 1 h, 37 °C	reference: compound over DMSO, lower = more inhibition	median protein ratio	1.05
COc1ccc2c3c1O[C@H]1CC(=O)C=C[C@@]31CCNC2	Leucojum aestivum	N-methylation of narwedine, substrate, LC-MS/MS		added: SAM 2 mM		Km	332 ± 28.7 µM
COc1cc(Nc2ncc(F)c(Nc3ccc4c(n3)NC(=O)C(C)(C)O4)n2)cc(OC)c1OC	Cathepsin B (CTSB, Homo sapiens, UniProt P07858)					IC50	> 10 µM
Nc1ncnc2c1ncn2[C@@H]1O[C@@H]2COP(=O)(O)O[C@H]3[C@@H](O)[C@H](n4cnc5c(=O)[nH]cnc54)O[C@@H]3COP(=O)(O)O[C@H]2[C@H]1O	HFF-1	RNA sequencing Reactome analysis, refers to: Reactome R-HSA-180292 GAB1 signalosome		added: West Nile virus infection	reference: West Nile virus infected cells, upregulated pathway	pathway fold enrichment	9.59
COc1ccc(N2C(=O)N(c3c(C)cccc3Cl)Cc3cnc(Nc4ccc(C5CCN(C)CC5)cc4OC)nc32)nc1	DAPK1 (Homo sapiens, UniProt P53355)	kinase activity		0.5 µM		inhibition	2%
OC[C@H]1O[C@@H](n2ccc3c(SCc4ccc(Cl)cc4Cl)ncnc32)[C@H](O)[C@@H]1O	Toxoplasma gondii	[3H]uracil incorporation	human fibroblasts, adenosine kinase deficient	50 µM		survival	100%
CNC1(c2ccccc2Cl)CCCCC1=O (racemic)	sigma receptor	radioligand binding, agonist, radioligand displacement		30 µM		inhibition	4%
CN1CCN(c2cc(-c3ccncc3)c(-c3ccc4ccccc4c3)nn2)CC1	MC2R (Homo sapiens, UniProt Q01718)	antagonist, FLIPR		10 µM		inhibition	21.9%
OC[C@H]1O[C@@H](n2ccc3c(SCc4ccc(F)cc4F)ncnc32)[C@H](O)[C@@H]1O	Toxoplasma gondii	[3H]uracil incorporation	human fibroblasts, adenosine kinase deficient	5 µM		survival	100%
CN1CC[C@]2(C)c3cc(OC(=O)Nc4ccccc4)ccc3N(C)[C@H]12	human nicotinic α4β4 receptor	radioligand binding		10 µM, added: [3H]epibatidine		inhibition	4.7%
COC(=O)[C@@H](NC(=O)c1nn(Cc2ccc(F)cc2)c2ccccc12)C(C)(C)C	CNR2 (Homo sapiens, UniProt P34972)	GTPase			reference: compound	Gi GTP turnover median	100%
O=C(Nc1cnccc1Cl)N1CCN(Cc2ccc3c(c2)OC(F)(F)O3)CC1	HTR3A (Homo sapiens, UniProt P46098)	radioligand binding		10 µM, added: [3H]GR-65630		inhibition of binding	5%
CC[C@H](C)[C@H](NC(=O)CNC(=O)[C@@H](N)CCCCN)C(=O)N[C@@H](CC(C)C)C(=O)N[C@@H](CCCCN)C(=O)N[C@@H](CCCNC(=N)N)C(=O)N[C@@H](CCC(=O)O)C(=O)N[C@@H](CCCCN)C(=O)N[C@@H](CCCNC(=N)N)C(=O)N[C@@H](CC(C)C)C(=O)N[C@@H](CCCNC(=N)N)C(=O)N[C@@H](CCCNC(=N)N)C(=O)N[C@@H](CCCCN)C(=O)N[C@@H](CC(N)=O)C(=O)N[C@H](C(=O)N[C@@H](Cc1c[nH]cn1)C(=O)N[C@@H](Cc1c[nH]c2ccccc12)C(=O)N1CCC[C@H]1C(=O)N[C@@H](CCC(=O)O)C(=O)N[C@@H](CCC(=O)O)C(=O)NCC(=O)N[C@@H](CCCCN)C(=O)N[C@@H](CC(C)C)C(=O)N[C@@H](CCCNC(=N)N)C(=O)N[C@@H](CCC(=O)O)C(=O)N[C@@H](Cc1ccccc1)C(=O)N[C@@H](Cc1ccccc1)C(=O)N[C@@H](Cc1ccccc1)C(=O)N[C@@H](Cc1ccccc1)C(=O)N[C@@H](CCC(=O)O)C(=O)N[C@@H](CC(C)C)C(=O)N[C@@H](CC(=O)O)C(=O)N[C@@H](CCC(=O)O)C(=O)N[C@@H](C)C(=O)N[C@@H](CCC(=O)O)C(=O)N[C@@H](CCCNC(=N)N)C(=O)N[C@H](C(=O)N[C@@H](CC(N)=O)C(=O)N[C@H](C(=O)O)C(C)C)C(C)C)C(C)C	HeLa and HEK-293T cells	phosphatase bead binding, competitive inhibitor, PIB pulldown iBAQ LC-MS/MS, refers to: PPP4C		concentration not given	reference: untreated control	log2 fold change	0.58
OC[C@H]1O[C@@H](n2ccc3c(SCc4ccc(Cl)c(Cl)c4)ncnc32)[C@H](O)[C@@H]1O	Toxoplasma gondii	[3H]uracil incorporation	human fibroblasts, adenosine kinase deficient	10 µM		survival	100%
CC(C)[C@@H]1NC(=O)[C@H](Cc2ccccc2)NC(=O)[C@@H]2NC(=O)[C@H](Cc3ccccc3)NC(=O)[C@@H]3CCCN3C(=O)CNC(=O)[C@H](Cc3ccccc3)NC(=O)[C@@H]3CNCCCC[C@@H](C(=O)O)NC(=O)[C@@H]4NC(=O)[C@H](CC(N)=O)NC(=O)CNC(=O)[C@H]([C@@H](O)C(=O)O)NC(=O)[C@H](CSC[C@@H](NC(=O)[C@H](CCC(N)=O)NC(=O)[C@H](CCCCNC(=O)c5ccc(NN)nc5)NC(=O)[C@@H](N)CS[C@H]4C)C(=O)N[C@@H](CS[C@H]2C)C(=O)N3)NC1=O [technetium-99m labelled]			rat, saline control, liver	intravenous, 2 h after tracer, tracer 24 h after reperfusion		tissue uptake	2.1 ± 0.22 %ID/g
CC(C)C[C@@H]1NC(=O)[C@H](CC(C)C)NC(=O)[C@H](Cc2c[nH]c3ccccc23)NC(=O)[C@H](CO)NC(=O)[C@H](Cc2c[nH]c3ccccc23)NC(=O)[C@@H]2CCCN2C(=O)[C@H](CC(C)C)NC(=O)[C@H](Cc2c[nH]cn2)NC(=O)[C@@H]2CCCN2C(=O)[C@H](CC(N)=O)NC(=O)[C@H](C)NC(=O)[C@H](Cc2ccc(O)cc2)NC(=O)[C@H](CS)NC(=O)[C@H](CCCCNC(=O)CN2CCN(CC(=O)O)CCN(CC(=O)O)CCN(CC(=O)O)CC2)NC1=O [lutetium-177 labelled]			Balb/c mouse, female, 4T1 tumour, heart	intravenous, 3.7 MBq, 4 h		tissue uptake	0.08 ± 0.05 %ID
Oc1ccc2c3c1O[C@H]1[C@@H](O)CC[C@@]4(O)[C@@H](C2)N(CC2CCC2)CC[C@]314	Mas-related G-protein coupled receptor MRG (MAS1L, Homo sapiens, UniProt P35410)	β-arrestin recruitment, TANGO luminescence, refers to: MAS1L		concentration not given	reference: basal luminescence	log2 fold change	0.175
C[C@H]1CN(c2n[nH]c3nc(N[C@H]4CC[C@H](NS(=O)(=O)CCC(F)(F)F)CC4)ncc23)CCO1	MAPK14 (Homo sapiens, UniProt Q16539)	Kinobeads competition	HEK293, K562, placenta lysate	20 µM, unit not given	reference: vehicle	remaining binding	0.22
COc1cc2c(Oc3ccc4[nH]c(C)cc4c3F)ccnc2cc1OCC1(N)CC1			paediatric recurrent refractory sarcoma	concentration not given, whole group		grade 1 or 2 Diarrhoea	41.2%
CC[C@H](C)[C@@H]1NC(=O)[C@@H]2CCCN2C(=O)[C@H](CC(C)C)NC(=O)[C@H](CC(C)C)NC(=O)CNC(=O)[C@@H](NC(=O)[C@@H](NC(=O)[C@H](CC(=O)O)NC(=O)CNC(=O)[C@@H](NC(=O)[C@H](C)NC(=O)CNC(=O)[C@H](CCCCN)NC(=O)[C@H](CC(C)C)NC(=O)[C@H](CC(C)C)NC(=O)[C@H](CCCCN)NC(=O)CNC(=O)[C@@H](NC(=O)[C@@H](N)CC(C)C)C(C)C)C(C)C)C(C)C)CSSC[C@@H](C(=O)O)NC1=O		RNA-seq, refers to: Smtnl2	mouse, traumatic brain injury model, frontal cortex and hippocampus	dose not given	reference: TBI alone	log2 fold change	-1.85
O=C(O)C[C@H](NC(=O)[C@H](CC(=O)O)NC(=O)[C@H](CC(=O)O)NC(=O)[C@H](CC(=O)O)NC(=O)[C@H](CC(=O)O)NC(=O)[C@H](CC(=O)O)NC(=O)[C@H](CC(=O)O)NC(=O)[C@H](CC(=O)O)NC(=O)[C@H](CC(=O)O)NC(=O)[C@H](CC(=O)O)NC(=O)[C@H](CC(=O)O)NC(=O)[C@H](CCCCNC(=O)c1ccc(C(=O)NCCOCCOB2BBBBBB3BBBB3B2)cc1)NC(=O)CN1CCN(CC(=O)O)CCN(CC(=O)O)CCN(CC(=O)O)CC1)C(=O)O [gallium-67 labelled]			ddY male mice, brain	intravenous, 37 kBq, 1 h		tissue uptake	0.02 %ID/g
Cc1ccc(CSc2ncnc3c2ccn3[C@@H]2O[C@H](CO)[C@@H](O)[C@H]2O)cc1	Toxoplasma gondii	[3H]uracil incorporation	human fibroblasts, adenosine kinase deficient	10 µM		survival	100%
[2H]c1c([2H])c([C@]2([2H])CCCN2C(=O)C(C)(C)Oc2ccc3cn[nH]c3c2)c([2H])c([2H])c1C([2H])([2H])[2H]	MAP3K2 (Homo sapiens, UniProt Q9Y2U5)	KINOMEscan		1 µM	reference: DMSO control	remaining binding	65%

Excerpt of the above:
SMILES	target or system	test	system	conditions	how to read	quantity	value
CC[C@H](C)[C@@H]1NC(=O)[C@@H]2CCCN2C(=O)[C@H](CC(C)C)NC(=O)[C@H](CC(C)C)NC(=O)CNC(=O)[C@@H](NC(=O)[C@@H](NC(=O)[C@H](CC(=O)O)NC(=O)CNC(=O)[C@@H](NC(=O)[C@H](C)NC(=O)CNC(=O)[C@H](CCCCN)NC(=O)[C@H](CC(C)C)NC(=O)[C@H](CC(C)C)NC(=O)[C@H](CCCCN)NC(=O)CNC(=O)[C@@H](NC(=O)[C@@H](N)CC(C)C)C(C)C)C(C)C)C(C)C)CSSC[C@@H](C(=O)O)NC1=O		RNA-seq, refers to: Smtnl2	mouse, traumatic brain injury model, frontal cortex and hippocampus	dose not given	reference: TBI alone	log2 fold change	-1.85
